# Measured values of several laboratories.
# Parts stem from different laboratories: compare values within a part only. Substitutions count along the parent as printed.

# Series 1
# Target: Sal-like protein 4, full length isoform B (SALL4, Homo sapiens, UniProt Q9UJQ4-2, residues 1-616)
# Method: universal PBM
# Molecule type: double-stranded DNA, one strand shown
# Medium: in vitro
# Tested at: not given
# Notes: 8-mer, flanks averaged, mean of replicates
# Reading: higher = stronger binding
Strand,E-score
AACTCCTC,0.0509
CCTTAAAG,0.0125
CAAACGCC,-0.158
AACAGCTC,-0.0736
CAATCCCG,-0.157
CCGTATAA,0.108
GGTAGAAA,-0.0243
CTCCTCCA,-0.102
AGTAGCAC,-0.154
ATGTCCAG,-0.0702
AGCCAGAT,0.0445
TATGACAA,0.325
ATGCTCTC,-0.0603
CCTCTAAG,0.0149
AGATTTAG,0.0282
ACGCTCCC,-0.165
ACTGGGCC,-0.276
AGACGGGA,-0.173
CGTAGTTA,0.273
CATGAGAA,0.107
ACGCATGA,0.0884
AGTCGGCG,-0.187
GCCCACAC,-0.109
GATGTAAA,0.227

# Series 2
# Target: ABI1, truncated, D143A, DHFR fusion (Arabidopsis thaliana)
# Method: DHFR PCA, deep sequencing
# Medium: yeast
# Notes: methotrexate growth selection, single substitutions
# Together with: (+)-ABA 4.8 µM
# Baseline: wild-type fitted maximum
# Reading: higher = stronger binding
# Starting sequence: PYL1, truncated, DHFR fusion (Arabidopsis thaliana); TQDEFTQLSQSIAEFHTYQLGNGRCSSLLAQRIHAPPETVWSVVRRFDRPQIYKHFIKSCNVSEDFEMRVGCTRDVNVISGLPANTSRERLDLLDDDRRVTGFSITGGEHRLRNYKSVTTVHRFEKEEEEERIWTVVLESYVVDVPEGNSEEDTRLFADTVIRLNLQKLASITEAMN; partner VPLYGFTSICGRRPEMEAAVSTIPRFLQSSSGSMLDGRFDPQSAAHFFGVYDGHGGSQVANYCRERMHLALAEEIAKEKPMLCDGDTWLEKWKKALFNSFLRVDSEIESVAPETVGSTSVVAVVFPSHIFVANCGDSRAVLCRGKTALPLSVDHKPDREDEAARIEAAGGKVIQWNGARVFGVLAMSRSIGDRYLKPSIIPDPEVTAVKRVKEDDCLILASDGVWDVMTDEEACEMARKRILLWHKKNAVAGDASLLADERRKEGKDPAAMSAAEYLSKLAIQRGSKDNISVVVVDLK
Variant,relative binding score [%]
D144R,8.61
G81M,10.3
D97Q,73.8
R46Y,-2.23
Q51W,22.4
T73P,0.0333
I133C,90.1
T160M,57.1
E151Y,52.5
E130S,83.3
F5M,79.5
R98I,34.6
I12S,1.54
T101Q,4.32
S150L,10.6

# Series 3
# Target: Histone acetyltransferase KAT6A, winged helix 2, GST fusion (KAT6A, Homo sapiens, UniProt Q92794, residues 85-181)
# Method: protein binding microarray
# Molecule type: double-stranded DNA, one strand shown
# Medium: in vitro
# Tested at: not given
# Notes: 8-mer, flanks averaged, mean of 2 arrays, mostly near background
# Baseline: not given
# Reading: higher = stronger binding
# Construct (chain): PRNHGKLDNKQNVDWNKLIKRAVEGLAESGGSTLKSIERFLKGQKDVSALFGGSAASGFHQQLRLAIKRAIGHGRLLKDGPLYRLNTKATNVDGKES
Strand,E-score
ACACCACC,-0.303
CATAGTAG,-0.195
AGAGTGTG,0.0118
CCGGGCAA,0.166
CGTGATAA,0.00061
AATGGCTG,0.0825
CGCGTGAC,0.0319
CCATCGGG,0.185
GATACATA,-0.0402
TCCATAGA,-0.0562
ACCTGTGG,-0.155
ATCGAGTA,-0.175
ACCCACAG,0.122
CACTTGAA,0.0261
TATAGGAA,-0.0607
GCAACGAA,0.153
CCAAGGTA,-0.0571
CGTCGTAC,-0.077
ACGTCGGG,-0.00464

# Series 4
# Target: Interferon regulatory factor 3, full length, phosphomimetic (IRF3, Homo sapiens, UniProt Q14653, residues 1-427, S386D/S396D/S398D/S402D/T404D/S405D)
# Method: protein-binding microarray
# Molecule type: double-stranded DNA, one strand shown
# Medium: in vitro
# Tested at: 2540 nM top
# Notes: 60-bp whole probe
# Together with: salmon DNA 0.4 mg/ml
# Baseline: random background probes
# Reading: higher = stronger binding
# Constant ends, left off below: GCCTAGCAC … GTCTTGATTCGCTTGACGCTGCTG
# Construct (chain): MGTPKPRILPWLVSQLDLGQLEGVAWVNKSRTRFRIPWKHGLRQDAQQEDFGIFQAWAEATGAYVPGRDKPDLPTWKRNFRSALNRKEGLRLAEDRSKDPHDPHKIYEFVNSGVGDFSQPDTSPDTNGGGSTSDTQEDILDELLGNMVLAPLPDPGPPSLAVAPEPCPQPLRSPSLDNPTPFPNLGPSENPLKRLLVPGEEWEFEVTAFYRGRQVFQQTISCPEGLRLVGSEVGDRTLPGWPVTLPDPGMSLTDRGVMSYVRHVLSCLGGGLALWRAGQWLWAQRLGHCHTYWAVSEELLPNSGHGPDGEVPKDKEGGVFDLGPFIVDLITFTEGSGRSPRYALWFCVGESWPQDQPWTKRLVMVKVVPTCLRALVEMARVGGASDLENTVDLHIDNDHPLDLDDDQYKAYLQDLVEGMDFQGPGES
Strand,fitted relative affinity
TTTCCTTTACATTCCCCATTGTGCTAG,7.69 z-score
ATAGGACTGCTACTGCTTTAGTGCTAG,-0.745 z-score
GACGGTTTCCGACTGGGGACGTGCTAG,4.71 z-score
TTAGGTTTCGGCATCGGTTAGTGCTAG,2.99 z-score
TTAAGACTGGACTTTCGGTTAGTGCTA,1.24 z-score
TCACTCTGCTCTTTTCAAACTGTGCTA,0.812 z-score
TCACCTCTAGGTTCTCTGACTGTGCTA,-0.112 z-score
TTAGATAGCAGTCTCGATTAGTGCTAG,-0.179 z-score
CACGGTTCCCTTTTCCTGACGTGCTAG,5.57 z-score
GACGGTTTAGGGTATCGGGACGTGCTA,0.642 z-score
GACGGTCTCCGTATCGGGACGTGCTAG,2.3 z-score
GAGGATCTCAGTTTCGAGACGTGCTAG,2.06 z-score
TTAGCTCTCCTTATCCTTTAGTGCTAG,1.83 z-score
ATATACCTGTATATCTTCAGGTGCTAG,0.515 z-score
TTAGGACTGGGTCTCTGTTAGTGCTAG,-0.664 z-score
TTAGGTATCCTTCACCTTTAGTGCTAG,1.8 z-score
TCACTTGTCCCTCCGGGACTGTGCTAG,0.0329 z-score
TTAGGACTGCTTTTCTTTTAGTGCTAG,1.29 z-score
GAAGGTATCGGTTTCGGGACGTGCTAG,7.19 z-score

# Series 5
# Target: CCNA1, cyclin fold, Cln2 fusion (human)
# Method: yeast growth competition, sequencing
# Medium: yeast
# Notes: weak parent motif
# Baseline: not given
# Reading: higher = stronger binding
# Starting sequence: WEE1 docking peptide (human); HKTFRKLRLFDTP; partner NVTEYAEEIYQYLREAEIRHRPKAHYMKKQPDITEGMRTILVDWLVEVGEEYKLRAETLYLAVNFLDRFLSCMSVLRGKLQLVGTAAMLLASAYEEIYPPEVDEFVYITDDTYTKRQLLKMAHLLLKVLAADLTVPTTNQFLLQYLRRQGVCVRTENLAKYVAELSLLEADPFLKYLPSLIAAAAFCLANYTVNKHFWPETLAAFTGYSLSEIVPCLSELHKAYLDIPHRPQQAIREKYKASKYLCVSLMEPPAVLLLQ
Variant,normalised enrichment score
HKTFRKLRLFDTM [P13M],0.514
HKTFEKLRLFDTP [R5E],0.889
HKTFRKLRLFDQP [T12Q],-0.224
HKTFRKLRLEDTP [F10E],0.311
HKIFRKLRLFDTP [T3I],0.0109
HKTFRHLRLFDTP [K6H],0.158
HKTFRYLRLFDTP [K6Y],0.21
HKKFRKLRLFDTP [T3K],-0.0681
HKTFRKLRLFDTN [P13N],0.397
HKNFRKLRLFDTP [T3N],-0.256
HKTFRKLRLFDHP [T12H],0.527
HKGFRKLRLFDTP [T3G],0.367
HPTFRKLRLFDTP [K2P],0.218
HKTFRWLRLFDTP [K6W],0.137
HKTFRKLRLFDTS [P13S],0.172
HKTFRKLRLFGTP [D11G],0.136
HKTFRKLRLKDTP [F10K],0.339
HKTFRKLRLFSTP [D11S],-0.154
HKTMRKLRLFDTP [F4M],0.57
